Measurements gathered from unrelated publications.
Numbered parts are unrelated; each lists some results of a single study.

Study 1
Target: Histone acetyltransferase KAT6A, winged helix 2, GST fusion (KAT6A, Homo sapiens, UniProt Q92794, residues 85-181)
Method: protein binding microarray
Molecule type: double-stranded DNA, one strand shown
Sample: in vitro
Tested at: not given
Notes: 8-mer, flanks averaged, mean of 2 arrays, mostly near background
Relative to: not given
Direction: higher = stronger binding
Construct (chain): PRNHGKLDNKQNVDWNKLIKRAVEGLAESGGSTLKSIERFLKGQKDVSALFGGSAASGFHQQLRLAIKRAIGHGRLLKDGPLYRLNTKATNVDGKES
The E-score of `AGGAGTAG` is reported as -0.00464.
`CGGTTCAA` gave an E-score of -0.0182.
With `AAGAGGTC` the E-score was 0.0398.
With `CCAGCTTC` the E-score was 0.107.
The E-score of `TTACAAAA` is reported as 0.0499.
With `TAGCAAAA` the E-score was 0.0367.
For `ACTAGCCC`, the E-score was -0.0111.
The E-score of `ACGATAAA` is reported as -0.0572.
`GGTACAAC` has an E-score of -0.092.

Study 2
Target: Interferon regulatory factor 7, full length, phosphomimetic (IRF7, Homo sapiens, UniProt Q92985, residues 1-503, S471D/S472D/S475D/S476D/S477D/S483D/S484D/S487D)
Method: protein-binding microarray
Molecule type: double-stranded DNA, one strand shown
Sample: in vitro
Tested at: 2200 nM top
Notes: 60-bp whole probe
Added: salmon DNA 0.4 mg/ml
Relative to: random background probes
Direction: higher = stronger binding
Shared flanks, not repeated: GCCTAGCAC … GTCTTGATTCGCTTGACGCTGCTG
Target sequence (chain): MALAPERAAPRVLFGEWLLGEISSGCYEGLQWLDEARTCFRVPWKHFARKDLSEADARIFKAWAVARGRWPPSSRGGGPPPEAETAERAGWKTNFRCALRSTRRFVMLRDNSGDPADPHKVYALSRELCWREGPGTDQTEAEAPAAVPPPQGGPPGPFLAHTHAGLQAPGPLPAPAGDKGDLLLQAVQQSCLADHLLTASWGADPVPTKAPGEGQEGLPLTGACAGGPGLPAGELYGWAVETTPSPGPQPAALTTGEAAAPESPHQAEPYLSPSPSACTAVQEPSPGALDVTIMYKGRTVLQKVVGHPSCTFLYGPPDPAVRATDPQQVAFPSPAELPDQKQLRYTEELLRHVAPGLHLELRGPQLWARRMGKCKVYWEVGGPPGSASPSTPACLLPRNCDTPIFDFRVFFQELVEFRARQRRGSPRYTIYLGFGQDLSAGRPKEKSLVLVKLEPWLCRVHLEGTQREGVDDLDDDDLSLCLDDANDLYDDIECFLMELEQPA
`GTTGCTCTCTCACCACCTTCGTGCTAG`: “fitted relative affinity” 2.03 z-score.
`TTAGGTTTCGACACTGGGTAAGTGCTA` — result for “fitted relative affinity”: 2.4 z-score.
Under “fitted relative affinity”, `TCACCTTGATGTCTGGGACTGTGCTAG` is recorded as 0.792 z-score.
Under “fitted relative affinity”, `TTATATATCAGTCTCGATTAGTGCTAG` is recorded as 0.883 z-score.
For `TTAGGAGTGGGACTGGGTTAGTGCTAG`, “fitted relative affinity” read -0.687 z-score.
`TTAGGTATCGGACTTGGTTAGTGCTAG` — result for “fitted relative affinity”: 0.327 z-score.

Study 3
Target: RNA binding protein fox-1 homolog 2, RRM domain, GST-SBP tag (RBFOX2, Homo sapiens, UniProt O43251-10, residues 100-194)
Method: RNA Bind-n-Seq
Molecule type: RNA
Sample: in vitro
Tested at: 365 nM
Notes: natural RNA segment, single round, ends assumed
Relative to: no-protein control
Direction: higher = stronger binding
Target sequence (chain): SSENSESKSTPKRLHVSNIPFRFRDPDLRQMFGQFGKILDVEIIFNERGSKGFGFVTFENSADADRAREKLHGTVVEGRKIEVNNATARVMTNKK
Under “RBNS enrichment (R)”, `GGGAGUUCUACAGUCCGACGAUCCUGGUACUGGGUACAUGGGUAAGGGUGGUACAGUGAAACCCACUCUCUCCCCUUUUUAUAAUGUAGAAGAAAGUAAUUGUCCUGUCUCAUUUGGGAAUUGAAUGUGGCCUUGGAAUUCUCGGGUGCCAA` is recorded as 0.625.
Under “RBNS enrichment (R)”, `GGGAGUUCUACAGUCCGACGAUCCCCUGACCAGCCUCCUCCCAUGACUGGUGACUGUUUAAUGAGCUGUGCAUCCCCCACAAAAACAUGAGUGCCCCUCUGUGUGGCCUCUAACCCUCUGCACAGCCCUUCUGUGGAAUUCUCGGGUGCCAA` is recorded as 0.475.
`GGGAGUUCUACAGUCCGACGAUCACUAUGACAUGACUUGAGUCCAGUGAGAUCUCAUUAGGAUUAAUAUUUCAGGGAUCCUUAAUAUUUUGAUUUGUUUUCCGAGAUUGGAUUUUAUUUUAUCUGCUAUUUCAUGGAAUUCUCGGGUGCCAA`: “RBNS enrichment (R)” 2.09.
Under “RBNS enrichment (R)”, `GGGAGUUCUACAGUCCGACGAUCAGGGGAACAAAGAAUACUUUGGGGGGAAAAAAGUUUUAAAAAAGAAAUUGAAAAUUGCCUUGCAGAUAUUUAGGUACAAUGGAGUUUUCUUUUCCCAAACGGGAAGAACAUGGAAUUCUCGGGUGCCAA` is recorded as 1.33.
`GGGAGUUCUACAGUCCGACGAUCAGGGCUGGGCAGCAGGGAGCCUGGGACUGAACAAUAAACCCAUGAUCUCCUGCCUCACACACCUGUUUGUGACUUUCCCAGCAAGUAGCUCUGUUACCCUGAGAACACCAUGGAAUUCUCGGGUGCCAA` — result for “RBNS enrichment (R)”: 0.657.
`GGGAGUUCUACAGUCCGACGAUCUCCACCACCAAGCCUGGGGACUUCGCCCCAACAAAAUUGUAAACGUUGUUAGGUUUUCGUGUAAGACUCUUGCUGUAUCGUGACAGCUGUGAUUGGUGAGUUGACCGUCCUGGAAUUCUCGGGUGCCAA` — result for “RBNS enrichment (R)”: 0.274.
`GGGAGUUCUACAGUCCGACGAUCAAGACAGUGUGUAGCAGCCCUGAGCUUUUCAAUUCUACUGCUCUUUCUCUUCCCGCAGACAGUCCCACACAUCAGCCUCUACUCCUUCCACCACUGCAAACCCCCAAAUUUGGAAUUCUCGGGUGCCAA` — result for “RBNS enrichment (R)”: 0.47.
`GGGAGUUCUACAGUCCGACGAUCGAAAGUGUUUUUCAAACUCAGUGACAAGGACUUUGGUUUUUGUAAGACUGUUGAUGAUAUGAAGGCCUUUUGUAAGAAAAUAAAAAAUAAAGUAAAUUGCCUGUCUCUCUUGGAAUUCUCGGGUGCCAA` — result for “RBNS enrichment (R)”: 0.356.

Further values, each from its own experiment
With `PhoQ, residues 284 288 289 292 302 303 SCEHLI` the fold induction was 12.3 (PhoP, residues 12 14 15 18 19 GQALL (Escherichia coli, UniProt P23836); Sort-seq, refers to: YFP reporter; E. coli; PhoQ-PhoP variant library, added: 10 µM Mg2+; relative to: high Mg2+ state, higher = stronger signaling).

Some of these lines once more (study 3):
`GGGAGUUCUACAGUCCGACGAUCUCCACCACCAAGCCUGGGGACUUCGCCCCAACAAAAUUGUAAACGUUGUUAGGUUUUCGUGUAAGACUCUUGCUGUAUCGUGACAGCUGUGAUUGGUGAGUUGACCGUCCUGGAAUUCUCGGGUGCCAA` — result for “RBNS enrichment (R)”: 0.274.
Under “RBNS enrichment (R)”, `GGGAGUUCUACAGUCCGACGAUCAGGGGAACAAAGAAUACUUUGGGGGGAAAAAAGUUUUAAAAAAGAAAUUGAAAAUUGCCUUGCAGAUAUUUAGGUACAAUGGAGUUUUCUUUUCCCAAACGGGAAGAACAUGGAAUUCUCGGGUGCCAA` is recorded as 1.33.
Under “RBNS enrichment (R)”, `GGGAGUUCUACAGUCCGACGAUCCCCUGACCAGCCUCCUCCCAUGACUGGUGACUGUUUAAUGAGCUGUGCAUCCCCCACAAAAACAUGAGUGCCCCUCUGUGUGGCCUCUAACCCUCUGCACAGCCCUUCUGUGGAAUUCUCGGGUGCCAA` is recorded as 0.475.
